Published values of several laboratories.
Each numbered part is a random draw from the data of one study; scales do not carry over between parts. Changes are numbered by the printed parent chain.

Series 1
Target: Prothrombin, mature alpha-thrombin (F2, Homo sapiens, UniProt P00734)
Technique: aptamer microarray, sandwich
Form: DNA with 2'F-ANA
Sample: in vitro
Concentration: 200 nM
Notes: whole 15-mer aptamer, many near background
Added: Cy3 exosite-II aptamer, 400 nM
Reading: higher = stronger binding
Oligonucleotide: GGTTGGTGTGGTTGG
Modification | mean fluorescence intensity
2'F-ANA at 3 5 6 7 10 11 12 13 | 54.7 a.u.
2'F-ANA at 1 2 7 9 10 14 | 44.9 a.u.
2'F-ANA at 1 5 10 11 12 13 15 | 45.3 a.u.
2'F-ANA at 1 5 12 14 15 | 53.7 a.u.
2'F-ANA at 3 4 6 8 9 10 11 12 15 | 222 a.u.
2'F-ANA at 2 3 7 8 9 12 14 15 | 538 a.u.
2'F-ANA at 2 5 7 8 9 10 11 12 13 14 | 64.8 a.u.
2'F-ANA at 1 3 4 5 7 8 11 13 14 | 45.8 a.u.
2'F-ANA at 3 4 6 8 9 11 12 13 14 | 246 a.u.
2'F-ANA at 1 2 4 7 8 9 11 13 14 15 | 48.8 a.u.
2'F-ANA at 1 2 3 5 6 10 11 12 13 | 54.2 a.u.
2'F-ANA at 1 2 3 4 5 8 10 12 | 49.6 a.u.
2'F-ANA at 2 3 9 10 13 15 | 335 a.u.
2'F-ANA at 1 3 4 7 11 14 | 78.7 a.u.
2'F-ANA at 5 9 11 12 | 137 a.u.
2'F-ANA at 2 4 6 7 8 9 12 13 14 | 98.2 a.u.
2'F-ANA at 2 3 6 8 10 11 12 14 | 261 a.u.

Series 2
Target: CCND3, cyclin fold, Cln2 fusion (human)
Technique: yeast growth competition, sequencing
Sample: yeast
Notes: weak parent motif
Relative to: not given
Reading: higher = stronger binding
Starting sequence: HIRA docking peptide (human); SLSKRKLELEVET
Variant | normalised enrichment score
L9F | -0.224
K4A | 0.0515
E10A | 0.051
K6A | 0.142
E8A | 0.124
L9A | 0.0711
S1A | 0.113

Series 3
Target: RING finger protein unkempt homolog, zinc fingers 1-6, GST-SBP tag (UNK, Homo sapiens, UniProt Q9C0B0, residues 30-357)
Technique: RNA Bind-n-Seq
Form: RNA
Sample: in vitro
Concentration: not given
Notes: RNA with constant flanks, human and mouse sites, ends assumed
Relative to: input RNA pool
Reading: higher = stronger binding
Construct (chain): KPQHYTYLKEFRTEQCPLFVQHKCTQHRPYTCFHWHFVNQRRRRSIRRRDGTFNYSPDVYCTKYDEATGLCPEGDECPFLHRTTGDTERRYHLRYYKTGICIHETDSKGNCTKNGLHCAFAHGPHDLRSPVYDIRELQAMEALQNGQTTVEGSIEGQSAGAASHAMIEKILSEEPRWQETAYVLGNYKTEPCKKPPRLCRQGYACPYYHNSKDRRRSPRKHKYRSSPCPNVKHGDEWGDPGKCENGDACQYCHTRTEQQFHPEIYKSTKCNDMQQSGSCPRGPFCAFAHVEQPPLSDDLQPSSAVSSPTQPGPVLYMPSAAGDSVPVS
Oligonucleotide | bound/input enrichment
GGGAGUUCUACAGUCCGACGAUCUCUUGUGGAGGGUGAGUUUUACAAGGAUGUUGUGGCAAAAGUUUUUUGUCGGUUUUUGAACCUUUUCUGGAAAGACAGUCUUGUCUGGGCAGACUUGGAUUUCAGGACUCAAGGCACACUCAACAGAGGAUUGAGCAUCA | 0.142 ratio
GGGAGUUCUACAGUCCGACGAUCCCUGCAAUUGUUCAUAUUAACCACCAGCCAUACUUGGAAAGGGGAGAUGGCCCAAUCUGUCUAGUUCUGGCUCCUACCAGAGAGCUUGCCCAGCAAGUACAGCAGGUGGCCGAUGACUAUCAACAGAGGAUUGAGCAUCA | 0.202 ratio
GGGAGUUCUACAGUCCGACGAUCAAUAUUAAAGAAGCUGCAAGGUGGAUGGAUGAGGCCCAGGCCUUGGACACAGCAGACAGAUUUAUCAACUCCAAAUGUGCAAAAUACAUGCUAAAAGCCAACCUGAUUAAAGAAGCUGAACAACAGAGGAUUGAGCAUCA | 0.18 ratio
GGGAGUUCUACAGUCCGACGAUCAAGGAAAUGCUGGCCGCAAACCCUCAGGAUCGCCCUGAUGCUUUUGAACUAGAACUCAGAUUAGUCCAAAUUGCAUUUAAAGACAGCAGCUGGGAGACGUGACCUACUGCUUGCAAGCAUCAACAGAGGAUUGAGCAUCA | 0.698 ratio
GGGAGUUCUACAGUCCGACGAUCUAUGUAGAAGAUUUAGAUACUAAGCCUCAAGAGACGUCUUUCCUCUCAUUUACGGUCUUCCUGCAUAUUUAAAAUUUCUAAUACGGUAGACAGAGUCGGUGUCUUUGAAGCUGUUAAUCACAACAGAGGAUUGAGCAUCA | 1.32 ratio
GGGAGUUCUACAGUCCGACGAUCAUGACAGGAAACAUCCCAACAUGGCUCACUGAGCUAGGAAAAACCUGCCCAUUUUUCUUUCCUUUUGAUACCCGACAAAUGCUUUUUUAUGUAACUGCAUUUGAUCGGGACCGGGCAAUGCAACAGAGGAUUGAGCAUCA | 0.145 ratio
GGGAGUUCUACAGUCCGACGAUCUUCAUCUAUUUGUGUACAAAAUGAUGUCGUUUUGAGGGAAUUUAAGUAUUUAAAUUGCUUCAUAGUCUAAAUUAUUAAUUUUCUUAAUAAAAUAACUGUUUAAACAUUGAUUUGCAGUUACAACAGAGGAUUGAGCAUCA | 3.69 ratio
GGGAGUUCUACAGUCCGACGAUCACGCUGCCGCUGCUGAGGCAGACCUCCACCAAGGCAGUCCAGCACUUCUACAACAUCAAACUCGAAGGCAAAGUGCCCAUGCACAAACUUUUUUUGGAAAUGCUGGAGGCCAAGGUCUGACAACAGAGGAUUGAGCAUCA | 0.0827 ratio

Series 4
Target: ABI1, truncated, D143A, DHFR fusion (Arabidopsis thaliana)
Technique: DHFR PCA, deep sequencing
Sample: yeast
Notes: methotrexate growth selection, single substitutions
Added: (+)-ABA 0.39 µM
Relative to: wild-type fitted maximum
Reading: higher = stronger binding
Starting sequence: PYL1, truncated, DHFR fusion (Arabidopsis thaliana); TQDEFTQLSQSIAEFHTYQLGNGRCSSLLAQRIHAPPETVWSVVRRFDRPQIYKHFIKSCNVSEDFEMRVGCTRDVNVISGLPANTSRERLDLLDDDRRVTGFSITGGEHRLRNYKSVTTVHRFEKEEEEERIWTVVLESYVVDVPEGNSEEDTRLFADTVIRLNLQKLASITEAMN; partner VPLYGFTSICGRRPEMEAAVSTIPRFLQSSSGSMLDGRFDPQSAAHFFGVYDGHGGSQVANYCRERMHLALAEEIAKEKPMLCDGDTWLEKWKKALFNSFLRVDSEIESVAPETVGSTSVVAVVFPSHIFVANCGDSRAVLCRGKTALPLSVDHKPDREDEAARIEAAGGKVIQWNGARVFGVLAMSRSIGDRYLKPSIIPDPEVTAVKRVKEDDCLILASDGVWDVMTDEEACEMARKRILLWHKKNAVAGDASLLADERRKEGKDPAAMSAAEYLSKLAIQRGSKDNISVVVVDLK
Variant | relative binding score [%]
L112D | -5.47
R24C | 14.1
G108S | -4.92
K168E | -9.59
L91Q | -4.3
S87L | 31.4
G108Y | -1.85
E129P | 60.8
D96C | -9.21
G23W | -5.77
R111V | 8.29
R45P | -9.46
D159E | 12.1

Other studies, line by line
Molecule | target | test | system | conditions | scale | quantity | result
PhoQ, residues 284 288 289 292 302 303 TVTVVA | PhoP, residues 12 14 15 18 19 NMSSL (Escherichia coli, UniProt P23836) | Sort-seq, measured: YFP reporter | E. coli | PhoQ-PhoP variant library, added: 10 µM Mg2+ | relative to: high Mg2+ state, higher = stronger signaling | fold induction | 10.9

Excerpt of the above (series 2):
Variant | normalised enrichment score
L9F | -0.224
K4A | 0.0515
E10A | 0.051
K6A | 0.142
E8A | 0.124
